{"data": "Measured values from different studies", "polA D424A": "polA fragment D424A (Escherichia coli)", "B1": "PPIP5K2 (Homo sapiens, UniProt O43314); chain MSEAPRFFVGPEDTEINPGNYRHFFHHADEDDEEEDDSPPERQIVVGICSMAKKSKSKPMKEILERISLFKYITVVVFEEEVILNEPVENWPLCDCLISFHSKGFPLDKAVAYAKLRNPFVINDLNMQYLIQDRREVYSILQAEGILLPRYAILNRDPNNPKECNLIEGEDHVEVNGEVFQKPFVEKPVSAEDHNVYIYYPTSAGGGSQRLFRKIGSRSSVYSPESNVRKTGSYIYEEFMPTDGTDVKVYTVGPDYAHAEARKSPALDGKVERDSEGKEVRYPVILNAREKLIAWKVCLAFKQTVCGFDLLRANGQSYVCDVNGFSFVKNSMKYYDDCAKILGNIVMRELAPQFHIPWSIPLEAED", "P1": "MED17 (Saccharomyces cerevisiae); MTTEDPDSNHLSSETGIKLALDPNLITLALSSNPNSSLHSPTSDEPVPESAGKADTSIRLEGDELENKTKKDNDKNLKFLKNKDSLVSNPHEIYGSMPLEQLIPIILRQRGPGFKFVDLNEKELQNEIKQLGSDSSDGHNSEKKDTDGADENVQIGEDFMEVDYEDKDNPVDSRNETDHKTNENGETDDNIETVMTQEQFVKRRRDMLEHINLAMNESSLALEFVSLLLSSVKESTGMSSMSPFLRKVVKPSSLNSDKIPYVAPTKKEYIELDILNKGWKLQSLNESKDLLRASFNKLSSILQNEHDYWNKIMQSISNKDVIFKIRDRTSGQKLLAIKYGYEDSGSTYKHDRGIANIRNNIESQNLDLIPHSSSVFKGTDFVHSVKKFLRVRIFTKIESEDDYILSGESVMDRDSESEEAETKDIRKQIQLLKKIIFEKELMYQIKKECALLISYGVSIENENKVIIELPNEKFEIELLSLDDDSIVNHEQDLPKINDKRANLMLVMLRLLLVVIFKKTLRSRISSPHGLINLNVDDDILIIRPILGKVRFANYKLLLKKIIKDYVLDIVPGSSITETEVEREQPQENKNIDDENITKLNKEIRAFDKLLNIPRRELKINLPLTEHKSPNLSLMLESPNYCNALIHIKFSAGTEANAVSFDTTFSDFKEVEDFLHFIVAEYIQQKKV; partner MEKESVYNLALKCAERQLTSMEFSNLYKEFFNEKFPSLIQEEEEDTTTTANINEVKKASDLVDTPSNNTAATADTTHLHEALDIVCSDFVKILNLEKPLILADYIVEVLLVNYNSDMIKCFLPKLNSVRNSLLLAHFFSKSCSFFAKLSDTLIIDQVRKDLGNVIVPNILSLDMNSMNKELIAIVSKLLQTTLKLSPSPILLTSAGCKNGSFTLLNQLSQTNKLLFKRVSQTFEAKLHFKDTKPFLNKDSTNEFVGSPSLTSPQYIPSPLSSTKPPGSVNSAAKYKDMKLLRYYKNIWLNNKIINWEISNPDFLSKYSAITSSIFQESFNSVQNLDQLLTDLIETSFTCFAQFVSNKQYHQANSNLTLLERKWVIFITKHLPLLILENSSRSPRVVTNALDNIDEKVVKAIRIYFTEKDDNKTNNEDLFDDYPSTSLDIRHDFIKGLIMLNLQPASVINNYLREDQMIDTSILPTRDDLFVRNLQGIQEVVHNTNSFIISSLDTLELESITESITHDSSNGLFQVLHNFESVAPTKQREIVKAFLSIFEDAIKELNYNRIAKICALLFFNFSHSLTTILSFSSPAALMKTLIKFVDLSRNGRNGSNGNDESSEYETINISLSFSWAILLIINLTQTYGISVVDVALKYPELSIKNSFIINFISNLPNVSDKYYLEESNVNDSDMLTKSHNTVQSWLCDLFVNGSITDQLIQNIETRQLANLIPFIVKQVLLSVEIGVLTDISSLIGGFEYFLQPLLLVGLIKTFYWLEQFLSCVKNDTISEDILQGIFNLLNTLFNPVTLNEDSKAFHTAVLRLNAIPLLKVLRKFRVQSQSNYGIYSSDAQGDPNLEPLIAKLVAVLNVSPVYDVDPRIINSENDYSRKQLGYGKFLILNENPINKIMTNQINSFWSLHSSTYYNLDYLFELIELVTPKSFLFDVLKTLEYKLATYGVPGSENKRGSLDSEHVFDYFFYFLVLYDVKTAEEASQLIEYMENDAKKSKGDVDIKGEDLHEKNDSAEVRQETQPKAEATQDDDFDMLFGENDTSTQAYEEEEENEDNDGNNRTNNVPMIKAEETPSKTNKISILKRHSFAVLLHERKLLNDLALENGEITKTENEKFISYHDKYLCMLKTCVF", "B2": "protein (Thermotoga neapolitana, UniProt B9K712); chain MKMLYDLAKKRKTVRRFKKEKPPLEDLIYSLKVANEAPSGMNAQPWRFLIVEDEKLKGQIRRVCERSEKTFYENVRGRLKEWLDEKRFTWRKPFLKEAPYLLLVFSEKSAPYSRESVWLAVGYLLLALEEKGLGSVPYTPPDFREVEKLVNTPSELRLEVILPVGYPDDPKPKYPRNEVIVRYNTF", "B3": "enzyme (Streptomyces venezuelae, UniProt Q9ZGI2); chain SGADTGAGAGMFRALFRQAVEDDRYGEFLDVLAEASAFRPQFASPEACSERLDPVLLAGGPTDRAEGRAVLVGCTGTAANGGPHEFLRLSTSFQEERDFLAVPLPGYGTGTGTGTALLPADLDTALDAQARAILRAAGDAPVVLLGHSGGALLAHELAFRLERAHGAPPAGIVLVDPYPPGHQEPIEVWSRQLGEGLFAGELEPMSDARLLAMGRYARFLAGPRPGRSSAPVLLVRASEPLGDWQEERGDWRAHWDLPHTVADVPGDHFTMMRDHAPAVAEAVLSWLDAIEGIEGAGK", "note": "Substitutions count along the parent as printed. Numbers after ± are the reported error.", "sequence of UniProt Q94JM3 (whole entry, looked up)": "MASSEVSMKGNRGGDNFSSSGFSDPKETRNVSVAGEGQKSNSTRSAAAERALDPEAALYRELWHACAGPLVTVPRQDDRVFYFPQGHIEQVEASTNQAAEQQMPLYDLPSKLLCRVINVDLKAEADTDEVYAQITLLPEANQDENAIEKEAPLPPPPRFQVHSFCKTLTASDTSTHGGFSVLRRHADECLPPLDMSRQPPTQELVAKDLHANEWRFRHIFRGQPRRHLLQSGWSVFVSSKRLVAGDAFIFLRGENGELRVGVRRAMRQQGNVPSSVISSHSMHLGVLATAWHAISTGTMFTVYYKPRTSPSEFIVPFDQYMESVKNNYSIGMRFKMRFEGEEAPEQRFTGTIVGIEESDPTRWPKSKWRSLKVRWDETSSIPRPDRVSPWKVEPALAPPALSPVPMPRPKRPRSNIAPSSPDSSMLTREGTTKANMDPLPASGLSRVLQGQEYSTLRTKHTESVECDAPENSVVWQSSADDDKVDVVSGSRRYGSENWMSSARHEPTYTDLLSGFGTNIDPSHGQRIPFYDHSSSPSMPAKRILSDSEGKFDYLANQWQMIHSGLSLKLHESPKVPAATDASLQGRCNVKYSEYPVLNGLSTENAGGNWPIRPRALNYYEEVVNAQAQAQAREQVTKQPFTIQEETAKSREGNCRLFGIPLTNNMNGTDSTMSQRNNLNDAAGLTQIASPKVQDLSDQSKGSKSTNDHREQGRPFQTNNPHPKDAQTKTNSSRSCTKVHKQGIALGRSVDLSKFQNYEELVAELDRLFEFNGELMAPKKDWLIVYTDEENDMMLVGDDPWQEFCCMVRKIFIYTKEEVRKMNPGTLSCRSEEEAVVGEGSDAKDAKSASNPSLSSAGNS", "sequence of UniProt P21889 (whole entry, looked up)": "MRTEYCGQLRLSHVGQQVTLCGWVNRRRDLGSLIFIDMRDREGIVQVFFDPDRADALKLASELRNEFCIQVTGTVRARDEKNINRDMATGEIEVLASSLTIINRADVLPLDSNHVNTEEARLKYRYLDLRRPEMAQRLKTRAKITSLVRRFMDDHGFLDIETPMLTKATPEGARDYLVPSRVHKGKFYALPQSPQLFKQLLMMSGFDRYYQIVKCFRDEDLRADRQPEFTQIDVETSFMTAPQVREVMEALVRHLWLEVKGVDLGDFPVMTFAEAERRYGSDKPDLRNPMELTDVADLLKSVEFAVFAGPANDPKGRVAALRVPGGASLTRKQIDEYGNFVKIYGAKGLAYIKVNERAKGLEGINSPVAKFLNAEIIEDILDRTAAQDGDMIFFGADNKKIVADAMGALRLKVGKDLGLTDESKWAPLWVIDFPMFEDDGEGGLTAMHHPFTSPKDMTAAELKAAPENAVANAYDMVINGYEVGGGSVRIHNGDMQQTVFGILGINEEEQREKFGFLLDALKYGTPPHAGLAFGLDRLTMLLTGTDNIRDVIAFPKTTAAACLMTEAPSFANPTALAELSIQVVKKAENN", "sequence of UniProt Q66GI4 (whole entry, unmodified, looked up)": "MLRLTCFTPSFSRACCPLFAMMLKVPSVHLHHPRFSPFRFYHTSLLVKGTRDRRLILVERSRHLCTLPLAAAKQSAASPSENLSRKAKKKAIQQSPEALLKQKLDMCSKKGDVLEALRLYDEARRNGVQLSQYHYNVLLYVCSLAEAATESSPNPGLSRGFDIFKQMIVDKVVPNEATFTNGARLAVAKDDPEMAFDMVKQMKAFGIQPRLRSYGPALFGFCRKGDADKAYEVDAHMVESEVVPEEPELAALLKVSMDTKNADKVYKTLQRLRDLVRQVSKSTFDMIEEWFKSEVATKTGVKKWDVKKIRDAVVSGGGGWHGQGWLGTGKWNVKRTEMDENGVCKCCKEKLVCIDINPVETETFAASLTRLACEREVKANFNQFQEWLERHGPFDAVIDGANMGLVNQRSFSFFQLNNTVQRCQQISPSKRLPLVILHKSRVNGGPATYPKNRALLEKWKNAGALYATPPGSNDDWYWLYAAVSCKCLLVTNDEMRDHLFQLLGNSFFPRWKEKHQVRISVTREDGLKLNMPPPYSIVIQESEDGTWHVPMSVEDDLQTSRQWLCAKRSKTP", "sequence of UniProt P17676 (whole entry, looked up)": "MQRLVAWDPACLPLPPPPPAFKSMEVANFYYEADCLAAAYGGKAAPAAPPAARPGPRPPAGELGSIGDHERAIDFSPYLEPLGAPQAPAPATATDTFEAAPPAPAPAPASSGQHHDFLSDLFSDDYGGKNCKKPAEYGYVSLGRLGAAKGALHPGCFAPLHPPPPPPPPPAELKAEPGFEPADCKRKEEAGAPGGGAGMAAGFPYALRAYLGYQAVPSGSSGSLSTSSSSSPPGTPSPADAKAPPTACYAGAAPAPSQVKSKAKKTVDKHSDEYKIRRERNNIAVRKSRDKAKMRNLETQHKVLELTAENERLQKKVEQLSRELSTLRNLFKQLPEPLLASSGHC"}
{"Substance": "AGTCTTTTTGGTCTCTGGTCGGTCGACAATCCGTGTG (dsDNA; 5-C6-amino-dT labels)", "target or system": "ARF2 1-859 (Arabidopsis thaliana, UniProt Q94JM3)", "test": "smFRET titration", "test system": "double-stranded DNA, one strand shown", "measurement": "K1/2", "result": "45.2 nM"}
{"Substance": "GACAUGGUCCGGUAGUUCAGUUGGUUAGAAUGCCUGCCUGUCACGCAGGAGGUCGCGGGUUCGAGUCCCGUCCGGACCG (tRNA (Bacillus subtilis); 5'-GMPS, tRNA fold)", "target or system": "PRORP1 77-572 Y133F (Arabidopsis thaliana, UniProt Q66GI4)", "test": "fluorescence anisotropy", "test system": "folded RNA", "conditions": "NaCl 1 M", "how to read": "relative to: wild-type target", "measurement": "binding free energy loss", "result": "1.8 kcal/mol"}
{"Substance": "AGGATTGCGCAATAT (dsDNA; 5mC at central CpG)", "target or system": "CEBPB 269-344 (Homo sapiens, UniProt P17676)", "test": "fluorescence polarization", "test system": "double-stranded DNA, one strand shown", "how to read": "relative to: C:G, higher = stronger binding", "measurement": "relative affinity", "result": "< 3 fold"}
{"Substance": "CCTCTTCCCTCACCTCTTCTTGACCTCATTCGTACCCATTGACCTTCGCAACCACCTGCGAAGGTCAATGGGTACGAATGAGGT (hairpin DNA; hairpin, 5' overhang, 3' ddT)", "target or system": "polA D424A", "test": "SPR", "conditions": "with: dGTP 100 µM", "measurement": "Kd", "result": "16 ± 8 nM"}
{"Substance": "B1 (PPIP5K2)", "target or system": "O=P(O)(O)O[C@@H]1[C@@H](OP(=O)(O)O)[C@@H](OP(=O)(O)O)[C@@H](OP(=O)(O)OP(=O)(O)O)[C@H](OP(=O)(O)O)[C@H]1OP(=O)(O)O", "test": "steady-state kinetics", "measurement": "kcat/Km", "result": "17000 M⁻¹ s⁻¹"}
{"Substance": "P1 V670E", "target or system": "MED5 (Saccharomyces cerevisiae)", "test": "co-IP mass spectrometry", "test system": "crude extract", "how to read": "higher = more binding", "measurement": "peptide counts", "result": 13}
{"Substance": "AAGGUAUUAGAAAAACCAUUUCAUAACUUUGUCAAAGUUAAAUUAUAGGCUAAAUCCUAUAUAUCUUACCA (tRNA (Homo sapiens))", "target or system": "aspS full length assumed (Escherichia coli, UniProt P21889)", "test": "ITC", "test system": "folded RNA", "measurement": "Kd", "result": "22000 nM"}
{"Substance": "B2 (protein)", "target or system": "N[C@@H](Cc1ccc(O)c(Br)c1)C(=O)O", "test": "steady-state kinetics", "conditions": "pH 7.4, 60 °C", "measurement": "kcat/Km", "result": "600000 ± 517000 M⁻¹ s⁻¹"}
{"Substance": "B3 (enzyme)", "target or system": "CC[C@@H](O)[C@H](C)/C=C/C(=O)[C@H](C)C[C@H](C)[C@H](O)[C@@H](C)C(=O)SCCNC(C)=O", "test": "steady-state kinetics", "measurement": "kcat/Km", "result": "418.3 ± 3.17 M⁻¹ s⁻¹"}
{"Substance": "GACAUGGUCCGGUAGUUCAGUUGGUAAGAAUGCCUGCCUGUCACGCAGGAGGUCGCGGGUUCGAGUCCCGUCCGGACCG (tRNA (Bacillus subtilis); 5'-GMPS, tRNA fold)", "target or system": "PRORP1 77-572 (Arabidopsis thaliana, UniProt Q66GI4)", "test": "fluorescence anisotropy", "test system": "folded RNA", "conditions": "NaCl 330 mM", "measurement": "Kd", "result": "300 ± 30 nM"}
{"Substance": "CCTCTTCCCTCACCTCTTCTTGACCTCATTCGTACCCATTGACCTTCGCAACCACCTGCGAAGGTCAATGGGTACGAATGAGGT (hairpin DNA; hairpin, 5' overhang, dG-C8-FABP 22, 3' ddT)", "target or system": "polA D424A", "test": "SPR", "conditions": "with: dCTP 100 µM", "measurement": "Kd", "result": "0.3 ± 0.03 nM"}
{"Substance": "ATCACATTAACATCTGGCCTATATAA (dsDNA)", "target or system": "Transcription factor bHLH93 (Gossypium hirsutum, UniProt A0ABM3A805)", "test": "EMSA", "test system": "double-stranded DNA, one strand shown", "measurement": "binding", "result": "binds"}
{"note": "Repeated from above:"}
{"Substance": "CCTCTTCCCTCACCTCTTCTTGACCTCATTCGTACCCATTGACCTTCGCAACCACCTGCGAAGGTCAATGGGTACGAATGAGGT (hairpin DNA; hairpin, 5' overhang, 3' ddT)", "target or system": "polA D424A", "test": "SPR", "conditions": "with: dGTP 100 µM", "measurement": "Kd", "result": "16 ± 8 nM"}
